Measurements collected from several papers.
Protocols differ between the studies behind these lines. Numbers after ± are the reported error.
Organism: Trypanosoma brucei

Cc1ccc(Nc2cnnc3cc(-c4cnc(N5CCCN(C)CC5)nc4)ccc23)cn1 has an EC50 of 9000 ± 3200 nM (cell growth).
The EC50 of O=C(NC1CCNCC1)c1[nH]ncc1NC(=O)c1c(Cl)cccc1Cl is reported as 314 ± 36 nM (cell growth).
CN(C)CCNC(=O)c1cccn2c(=O)c3cc4ccccc4cc3nc12: “differentially expressed G4-containing genes” 10 genes (RNA-seq; Lister 427 bloodstream form; 2 × EC50, 4 h, ChIP-seq G4 peak overlap).
NS(=O)(=O)c1ccc(NC=C2C(=O)Nc3ccc4ncsc4c32)cc1 gave a selectivity of greater than 0.9 (unit not given; baseline: pEC50 T. brucei minus pTC50 HepG2).
COc1ccc(Nc2cnnc3cc(-c4ccc(N5CCN(C)CC5)cc4)ccc23)nc1 gave an EC50 of 690 ± 360 nM (cell growth).
Under “differentially expressed G4-containing genes”, Cc1cnc(CNC(=O)c2c(=O)c3ccc(N4CCCN(C)CC4)nc3n3c2sc2ccccc23)cn1 is recorded as 10 genes (RNA-seq; Lister 427 bloodstream form; 2 x EC50, 4 h, overlap, with peaks, G4 ChIP-seq; baseline: untreated).
COc1ccc(Nc2cnnc3ccc(-c4ccc(N5CCN(C)CC5)cc4)cc23)nc1 gave an EC50 of 1300 ± 290 nM (cell growth).
With C[n+]1cc(NC(=O)c2ccc3ccc4ccc(C(=O)Nc5cc6ccccc6[n+](C)c5)nc4c3n2)cc2ccccc21 the upregulated genes was 139 genes (RNA-seq; Lister 427 bloodstream form; 2 × EC50, 4 h, log2 FC 1, FDR 0.05; baseline: untreated).
COc1cc(NC(=O)c2ccc(C#N)cc2)ccc1S(N)(=O)=O gave an IC50 of less than 5000 nM (cell viability, MTS; Lister 427; 48 h).
CN1CCN(c2ncc(-c3ccc4nncc(Nc5ncccn5)c4c3)cn2)CC1 has an EC50 of 2800 ± 100 nM (cell growth).
The selectivity of O=C1Nc2ccc(C(=O)c3ccco3)cc2C1=Cc1cc(Cl)c(O)c(Cl)c1 is reported as 1.5 (unit not given; baseline: pEC50 T. brucei minus pTC50 HepG2).
The EC50 of COc1ccc(Nc2cnnc3cc(-c4cnc(N5CCN(C)CC5)nc4)ccc23)cc1Cl is reported as 3000 ± 380 nM (cell growth).
COc1cc(NC(=O)c2cccc(C(F)(F)F)c2)ccc1S(N)(=O)=O has an IC50 of greater than 20000 nM (cell viability, MTS; Lister 427; 48 h).
With COc1cc(Nc2ncc3c(C)nc(-c4cccc(Oc5ccccc5)c4)n3n2)cc(OC)c1OC the selectivity was greater than 2.1 (unit not given; baseline: pEC50 T. brucei minus pTC50 HepG2).
The EC50 of COc1ccc(Nc2cnnc3ccc(-c4cnc(N5CCN(C)CC5)nc4)cc23)cc1Cl is reported as 810 ± 180 nM (cell growth).
CN1CCC(C(=O)Nc2n[nH]c3nc(-c4ccc(O)cc4)c(Br)cc23)CC1 gave a selectivity of greater than 2.6 (unit not given; baseline: pEC50 T. brucei minus pTC50 HepG2).
With COc1cc(NC(=O)c2cc(C(F)(F)F)cc(C(F)(F)F)c2)ccc1S(N)(=O)=O the IC50 was greater than 20000 nM (cell viability, MTS; Lister 427; 48 h).
For CCn1cc(-c2ccnc3[nH]ccc23)c(-c2cccc(NC(=O)Nc3ccc(OCc4ccccc4)cc3)c2)n1, the selectivity was 1.5 (unit not given; baseline: pEC50 T. brucei minus pTC50 HepG2).
With Cc1ccc(C(=O)Nc2ccc(S(=O)(=O)O)c3cc(S(=O)(=O)O)cc(S(=O)(=O)O)c23)cc1NC(=O)c1cccc(NC(=O)Nc2cccc(C(=O)Nc3cc(C(=O)Nc4ccc(S(=O)(=O)O)c5cc(S(=O)(=O)O)cc(S(=O)(=O)O)c45)ccc3C)c2)c1 the EC50 was 50 nM (parasite growth; Squib 427).
CN1CCCN(c2ncc(-c3ccc4nncc(Nc5cnccn5)c4c3)cn2)CC1 has an EC50 of 4500 ± 640 nM (cell growth).
CNC(=O)c1nn(C)c2c1C(C)(C)Cc1cnc(Nc3ccc(N4CCN(C)CC4)cc3)nc1-2 has an EC50 of 27 ± 4.3 nM (cell growth).

Excerpt of the above:
COc1ccc(Nc2cnnc3ccc(-c4ccc(N5CCN(C)CC5)cc4)cc23)nc1 gave an EC50 of 1300 ± 290 nM (cell growth).
With C[n+]1cc(NC(=O)c2ccc3ccc4ccc(C(=O)Nc5cc6ccccc6[n+](C)c5)nc4c3n2)cc2ccccc21 the upregulated genes was 139 genes (RNA-seq; Lister 427 bloodstream form; 2 × EC50, 4 h, log2 FC 1, FDR 0.05; baseline: untreated).
